# Published values collected from several papers.
# Numbered parts are unrelated; each lists some results of a single study. Substitutions count along the parent as printed.

# Study 1 — target: BATF, bZIP domain (human); method: DHFR protein complementation; matrix: yeast; relative to: wild-type JUN-FOS pair; direction: higher = stronger binding
# Setting: single substitutions, most at no-binding floor
# Starting sequence: JUN, bZIP domain (human); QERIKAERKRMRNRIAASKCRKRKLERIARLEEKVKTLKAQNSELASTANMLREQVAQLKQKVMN; partner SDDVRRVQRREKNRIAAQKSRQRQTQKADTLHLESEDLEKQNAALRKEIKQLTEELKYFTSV
Substitution,binding fitness [natural log]
T37S,0.00586
Q41F,-1.3
N42W,-0.31
N42P,-1.25
L52W,-1.11
K36L,-0.0464
L59Q,-0.125
T37P,-1.15
T48I,-0.133
Q58V,0.0792
K34Y,-0.0195
V35M,-0.117
L52D,-1.33
L38G,-0.704
A46C,-0.0522
S47K,0.101
K39H,-0.131
L52K,-0.948
R53S,-0.398
V56G,-1.04
Q55A,-0.0526

# Study 2 — target: CCNE1, cyclin fold, Cln2 fusion (human); method: yeast growth competition, sequencing; matrix: yeast; setting: weak parent motif; relative to: not given; direction: higher = stronger binding
# Starting sequence: ORC1 docking peptide (human); PRARKRLELGNLG
Substitution,normalised enrichment score
PRARKILELGNLG [R6I],1.03
PRARKRWELGNLG [L7W],0.487
PRARKRLELGGLG [N11G],0.888
PRARKRLERGNLG [L9R],0.135
PRYRKRLELGNLG [A3Y],1.11
PRARIRLELGNLG [K5I],0.69
PRARKALELGNLG [R6A],-0.269
PRARKRLELGNAG [L12A],0.412
PRAWKRLELGNLG [R4W],0.452
PRARKNLELGNLG [R6N],0.121
PRARKRHELGNLG [L7H],-0.157
PRARKRLEKGNLG [L9K],0.166
PRARKRLELYNLG [G10Y],2.62
PRARKRLELGNGG [L12G],0.0488
PRARKRLELGTLG [N11T],0.635
PRARKRLELGNLL [G13L],-0.0455
PRARKRQELGNLG [L7Q],0.175
PRARKRLEHGNLG [L9H],0.368
PRARKRLELGNCG [L12C],0.0425
PRDRKRLELGNLG [A3D],-0.175
PRARKRLESGNLG [L9S],0.518
PRARVRLELGNLG [K5V],-0.284
PRARKRLELANLG [G10A],-0.0909
PRAQKRLELGNLG [R4Q],-0.0271
PRERKRLELGNLG [A3E],0.367

# Study 3 — method: aptamer microarray, sandwich; form: DNA with 2'F-ANA; matrix: in vitro; concentration: 200 nM; together with: Cy3 exosite-II aptamer, 400 nM; direction: higher = stronger binding; sequence: GGTTGGTGTGGTTGG
# Target: Prothrombin, mature alpha-thrombin (F2, Homo sapiens, UniProt P00734)
# Setting: whole 15-mer aptamer, many near background
Modification,mean fluorescence intensity [a.u.]
2'F-ANA at 1 2 3 10 14 15,51
2'F-ANA at 4 12 14 15,143
2'F-ANA at 1 3 4 6 7 8 10 11 12 13 15,69.7
2'F-ANA at 1 2 4 6 7 8 10 12,71.7
2'F-ANA at 1 3 5 6 9 10 11 13,73.7
2'F-ANA at 1 2 3 4 8 13 14,69.5
2'F-ANA at 3 5 6 7 9 12 15,221
2'F-ANA at 2 3 4 7 9 14 15,250
2'F-ANA at 1 2 4 7 8 11 12 13 14 15,64.1
2'F-ANA at 1 4 6 7 9 10 11 13 15,53.4
2'F-ANA at 1 4 5 10 11 12 14 15,50
2'F-ANA at 1 2 6 7 10 11 12 15,64.1
2'F-ANA at 3 4 5 6 7 9 12 14,52.2
2'F-ANA at 4 5 6 7 9 11 12 13 14,49.1
2'F-ANA at 2 3 4 5 7 12 15,188
2'F-ANA at 1 3 5 6 10 14 15,46.9
2'F-ANA at 1 4 5 8 14,50.3
2'F-ANA at 1 4 10 13 15,81.8
2'F-ANA at 4 9 11 13 14,72
2'F-ANA at 4 5 6 7 11 12 15,93.2
2'F-ANA at 8 9 11 13 14 15,151
2'F-ANA at 2 6 7 9 10 13 15,112
2'F-ANA at 2 3 5 6 8 9 11 12 14,54.8
2'F-ANA at 1 2 4 7 8 9 12 13 14,58.7
2'F-ANA at 1 2 4 7 8 9 12 15,357

# Study 4 — method: protein binding microarray; form: double-stranded DNA, one strand shown; matrix: in vitro; concentration: not given; relative to: not given; direction: higher = stronger binding
# Target: Histone acetyltransferase KAT6A, both winged helices, GST fusion (KAT6A, Homo sapiens, UniProt Q92794, residues 1-181)
# Setting: 8-mer, flanks averaged, mean of 2 arrays, mostly near background
# Construct (chain): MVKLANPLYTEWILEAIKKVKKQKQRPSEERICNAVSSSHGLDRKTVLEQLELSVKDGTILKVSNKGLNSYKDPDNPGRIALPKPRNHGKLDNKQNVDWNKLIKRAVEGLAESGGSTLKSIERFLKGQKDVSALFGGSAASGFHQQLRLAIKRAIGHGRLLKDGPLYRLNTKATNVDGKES
Sequence,E-score
AACGTGTG,-0.142
AGCGCTTA,0.332
CAACACCC,-0.153
GAGGGACC,-0.132
AATCAATC,0.00578
CTCCCGAG,-0.0658
AGTGAACC,0.0376
TGGTTTAA,-0.0881
CTGACTCC,-0.0783
CTCGTGGC,-0.0441
CGCAGTTA,0.188
AGCGTAAG,0.159
AATTATGA,-0.0012
TATCTACA,-0.0534
GCACGGGC,0.212
AATAGCCT,-0.223
AGGTGGAA,-0.158
AGAGGTCG,-0.0227

# Study 5 — method: DHFR PCA, deep sequencing; matrix: yeast; together with: (+)-ABA 0.11 µM; relative to: wild-type fitted maximum; direction: higher = stronger binding
# Target: ABI1, truncated, D143A, DHFR fusion (Arabidopsis thaliana)
# Setting: methotrexate growth selection, single substitutions
# Starting sequence: PYL1, truncated, DHFR fusion (Arabidopsis thaliana); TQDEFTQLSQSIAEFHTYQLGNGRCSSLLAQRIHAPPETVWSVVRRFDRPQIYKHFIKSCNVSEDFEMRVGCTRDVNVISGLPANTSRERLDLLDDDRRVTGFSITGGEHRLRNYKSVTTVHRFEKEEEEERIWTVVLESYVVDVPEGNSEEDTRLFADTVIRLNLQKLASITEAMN; partner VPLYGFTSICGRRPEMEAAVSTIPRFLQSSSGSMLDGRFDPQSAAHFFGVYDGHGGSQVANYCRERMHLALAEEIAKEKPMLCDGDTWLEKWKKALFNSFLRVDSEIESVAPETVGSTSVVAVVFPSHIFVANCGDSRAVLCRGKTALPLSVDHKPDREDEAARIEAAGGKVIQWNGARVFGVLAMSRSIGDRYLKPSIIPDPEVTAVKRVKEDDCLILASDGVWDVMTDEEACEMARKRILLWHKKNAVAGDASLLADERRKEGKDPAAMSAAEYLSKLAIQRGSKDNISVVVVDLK
Substitution,relative binding score
A35W,-1.16%
F56Y,-1.18%
L94P,-5.96%
K58N,2.19%
F47Y,0.821%
L156T,26.3%
L94F,43.3%
V142T,13.9%
Q7N,19.1%
S117K,-13.1%
R90V,10.1%
E130V,27.1%
H55Q,47%
R163P,0.429%
E174R,-4.74%
R99Q,12.9%

# Study 6 — method: RNA Bind-n-Seq; form: RNA; matrix: in vitro; concentration: 365 nM; relative to: no-protein control; direction: higher = stronger binding
# Target: RNA binding protein fox-1 homolog 2, RRM domain, GST-SBP tag (RBFOX2, Homo sapiens, UniProt O43251-10, residues 100-194)
# Setting: natural RNA segment, single round, ends assumed
# Constant ends, left off below: GGGAGUUCUACAGUCCGACGAUC … UGGAAUUCUCGGGUGCCAA
# Residues (chain): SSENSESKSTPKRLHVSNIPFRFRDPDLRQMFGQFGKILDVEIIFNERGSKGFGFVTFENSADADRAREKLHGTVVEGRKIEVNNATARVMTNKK
Sequence,RBNS enrichment (R)
GUUUUCAAACACAAUCUGAAAUCUGUUAGUAAAAUGAAUUCUGGGUAAAAAUGAGACUCAAGAGGCAUCACUGGCCAUUGUACCAGAUUAUUCCUGCUCGCCAGUGAGAG,0.439
UCAUCUGAGAACUUCUGAUUAGCUCUCAGUCUUCAGCUCUAUUUAUCUUAGGAGUUUAAUUUGCCCUUCUCUCCCCAUCUUCCCUCAGUUCCCAUAAAACCUUCAUUACA,0.986
CCUUUUUAAUUAGAAAUUAAAACAGUUAAUUUAAUUAAAGAGUAGGGUUUUUUUUCAGUAUUCUUGGUUAAUAUUUAAUUUCAACUAUUUAUGAGAUGUAUCUUUUGCUC,0.719
GCUGCUCUUAGGUUUGUGUGUGUUUCUCUCCUGGCCAUCCACCCCGGCUGUGGGUCCACCCCAGCCGAGGGACUCCUGGCCUGCAUUGCGGGAUUGUCAGUGGCAUUUAG,1.18
CACCUUUCGGCAGAGGAACCCCCACCAGACAUCACCCUUUGCCUUAGCAGGGGUGACUUUGUCUCUCCUGGCUGGGCCAUCCUUCCGCCAAUCUGGCCCUUACACACUCA,0.494
AGGAGGGAUGACUCCUGACCACACUGUUGAAGGCUUGCUCUUGUCAAAUACUCUGUCUGCUAUGGAAAGUUCCAGUGUGCUGACUGGUCUGUGAUUUUGUACCUUGUGAA,0.71
UCCCGAGAAGGUGGCUUUGGCUGAAGCCUAUUCCACAGCUCCUUGUUUUUUGAGAGAGACUGAGAGAACCAUAAUCCUUGCCUGCUGAACCCAGCCUGGGCCUGGAUGCU,0.32
UUUCAUUUUGUGCUGAGCCCUCAAAAUUAUGUCUGUUUCGUGGUGGGAAAUAUCCUAUGUUUUCUUGCUCAAACACCUUUCUCUCUGAAAGCAGAAAAAGGCACUGAUAU,0.492
GACAGUACACACCUAGUGUAUUGUCACUGAAGUCUUAGGUUUAACUUUGACAUCACAGGUCCCUUCCAGGGGUACCACUGGGUAGCUGCAGUGUGCACCGGUCACUACAU,0.23
UGUCAGCAGGCAGAGCAUUGCAGUUUAUUUAACUGAUGGCCAGGUUCUUGUUAGAACACCAAGCACACACUUGAGAUUAUUUAUUGAUCGAGGCAAAGUAAUUAGUCAUG,0.453
GUCUGUGGUGUGGAGAGGGUGUUCACUGUGUAAUCUUGGGCUGUGUGGAGUUGUUCUUAUCACCUUGCUUCAGAUGUUACUUUGGCGUCCUCCACCAGUUCUCCAUGCGC,0.453
UUGAAUUUUUUUCAGAUCCACUUAAAAUAUUUAGAAAAACAAGUUUUAUUCCUUAUGUGUCUUAUAAGGAAUAAAAUGGUCUUCAUUUGACACUUACUUUCCCAUGAACA,0.429

# Other studies, line by line
Substance,target,assay,system,setting,scale,measurement,value
"PhoQ, residues 284 288 289 292 302 303 SASVAL","PhoP, residues 12 14 15 18 19 AQCLL (Escherichia coli, UniProt P23836)","Sort-seq, measured: YFP reporter",E. coli,"PhoQ-PhoP variant library, together with: 10 µM Mg2+","relative to: high Mg2+ state, higher = stronger signaling",fold induction,4.7

# Repeated from above (study 1):
Substitution,binding fitness [natural log]
R53S,-0.398
K36L,-0.0464
N42P,-1.25
T37S,0.00586
L52W,-1.11
Q55A,-0.0526
L52K,-0.948
T37P,-1.15
N42W,-0.31
V56G,-1.04
V35M,-0.117
K34Y,-0.0195
S47K,0.101
L59Q,-0.125
L52D,-1.33
Q41F,-1.3
T48I,-0.133
